Published values pooled from the literature.
Lines come from different studies, so protocols differ. ± gives the spread as reported.

Amino acid sequences for entries named in this document (tags omitted). Residues count along the entry.
UniProt P11509, whole entry: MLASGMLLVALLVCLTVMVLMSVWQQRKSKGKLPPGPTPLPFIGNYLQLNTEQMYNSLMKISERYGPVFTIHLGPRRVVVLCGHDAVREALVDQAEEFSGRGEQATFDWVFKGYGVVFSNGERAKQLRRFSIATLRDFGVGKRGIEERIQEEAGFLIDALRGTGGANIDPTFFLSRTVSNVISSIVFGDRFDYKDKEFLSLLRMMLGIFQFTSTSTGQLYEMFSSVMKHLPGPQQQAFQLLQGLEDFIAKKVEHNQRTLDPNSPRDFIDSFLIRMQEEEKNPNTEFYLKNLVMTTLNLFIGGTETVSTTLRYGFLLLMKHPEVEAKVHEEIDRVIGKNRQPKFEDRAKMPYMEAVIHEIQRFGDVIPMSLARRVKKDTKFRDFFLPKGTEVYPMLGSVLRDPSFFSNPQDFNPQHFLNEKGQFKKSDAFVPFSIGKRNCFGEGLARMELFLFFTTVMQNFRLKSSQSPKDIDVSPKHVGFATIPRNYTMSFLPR
UniProt P10959, 19-549 limits assumed: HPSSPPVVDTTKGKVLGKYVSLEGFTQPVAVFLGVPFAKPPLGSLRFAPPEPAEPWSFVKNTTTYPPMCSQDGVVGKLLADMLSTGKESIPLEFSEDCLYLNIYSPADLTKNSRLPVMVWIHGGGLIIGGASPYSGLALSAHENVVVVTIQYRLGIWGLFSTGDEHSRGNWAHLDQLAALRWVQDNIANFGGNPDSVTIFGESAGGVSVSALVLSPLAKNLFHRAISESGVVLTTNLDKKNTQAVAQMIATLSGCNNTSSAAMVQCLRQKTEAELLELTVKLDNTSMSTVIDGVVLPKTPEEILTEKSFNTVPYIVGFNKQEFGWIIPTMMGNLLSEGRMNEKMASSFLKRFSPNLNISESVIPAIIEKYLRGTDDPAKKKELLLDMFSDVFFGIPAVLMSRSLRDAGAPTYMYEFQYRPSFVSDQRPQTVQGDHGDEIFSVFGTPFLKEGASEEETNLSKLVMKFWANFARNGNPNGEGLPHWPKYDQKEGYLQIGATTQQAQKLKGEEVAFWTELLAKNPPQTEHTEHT
UniProt P42574, whole entry, looked up: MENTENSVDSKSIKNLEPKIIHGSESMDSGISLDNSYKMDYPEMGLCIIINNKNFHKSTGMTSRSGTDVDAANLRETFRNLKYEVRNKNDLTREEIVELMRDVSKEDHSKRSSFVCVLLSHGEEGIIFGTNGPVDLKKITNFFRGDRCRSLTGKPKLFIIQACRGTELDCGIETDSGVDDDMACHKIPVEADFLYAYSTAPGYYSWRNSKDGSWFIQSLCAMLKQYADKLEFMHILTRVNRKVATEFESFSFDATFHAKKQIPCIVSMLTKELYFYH
UniProt P05177, whole entry: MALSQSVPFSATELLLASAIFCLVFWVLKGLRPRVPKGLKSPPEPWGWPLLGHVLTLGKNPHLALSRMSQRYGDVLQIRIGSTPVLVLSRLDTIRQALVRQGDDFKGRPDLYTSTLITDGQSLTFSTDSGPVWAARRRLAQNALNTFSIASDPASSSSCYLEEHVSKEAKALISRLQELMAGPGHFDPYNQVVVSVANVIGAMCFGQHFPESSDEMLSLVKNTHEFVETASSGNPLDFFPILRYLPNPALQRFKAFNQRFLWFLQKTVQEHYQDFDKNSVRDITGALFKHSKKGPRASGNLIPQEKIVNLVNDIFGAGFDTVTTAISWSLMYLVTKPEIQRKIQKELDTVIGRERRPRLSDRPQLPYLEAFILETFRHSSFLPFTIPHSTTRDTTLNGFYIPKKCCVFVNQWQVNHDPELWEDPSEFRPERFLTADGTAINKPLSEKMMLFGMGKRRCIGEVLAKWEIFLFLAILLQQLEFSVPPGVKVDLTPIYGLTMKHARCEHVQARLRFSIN
UniProt P04757, whole entry, looked up: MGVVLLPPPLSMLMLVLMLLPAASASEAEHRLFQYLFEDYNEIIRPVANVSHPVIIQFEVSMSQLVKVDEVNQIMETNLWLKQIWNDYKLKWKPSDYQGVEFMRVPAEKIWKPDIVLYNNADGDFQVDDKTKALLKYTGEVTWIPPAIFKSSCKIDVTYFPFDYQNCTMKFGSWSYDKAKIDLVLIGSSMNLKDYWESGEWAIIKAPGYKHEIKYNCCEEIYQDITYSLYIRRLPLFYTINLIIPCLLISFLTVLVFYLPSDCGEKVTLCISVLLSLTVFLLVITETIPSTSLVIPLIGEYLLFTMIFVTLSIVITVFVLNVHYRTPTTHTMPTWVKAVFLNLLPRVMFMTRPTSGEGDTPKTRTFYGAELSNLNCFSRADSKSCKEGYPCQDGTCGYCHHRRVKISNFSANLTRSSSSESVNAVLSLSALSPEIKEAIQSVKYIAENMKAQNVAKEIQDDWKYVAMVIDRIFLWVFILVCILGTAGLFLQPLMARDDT
UniProt P12390, whole entry, looked up: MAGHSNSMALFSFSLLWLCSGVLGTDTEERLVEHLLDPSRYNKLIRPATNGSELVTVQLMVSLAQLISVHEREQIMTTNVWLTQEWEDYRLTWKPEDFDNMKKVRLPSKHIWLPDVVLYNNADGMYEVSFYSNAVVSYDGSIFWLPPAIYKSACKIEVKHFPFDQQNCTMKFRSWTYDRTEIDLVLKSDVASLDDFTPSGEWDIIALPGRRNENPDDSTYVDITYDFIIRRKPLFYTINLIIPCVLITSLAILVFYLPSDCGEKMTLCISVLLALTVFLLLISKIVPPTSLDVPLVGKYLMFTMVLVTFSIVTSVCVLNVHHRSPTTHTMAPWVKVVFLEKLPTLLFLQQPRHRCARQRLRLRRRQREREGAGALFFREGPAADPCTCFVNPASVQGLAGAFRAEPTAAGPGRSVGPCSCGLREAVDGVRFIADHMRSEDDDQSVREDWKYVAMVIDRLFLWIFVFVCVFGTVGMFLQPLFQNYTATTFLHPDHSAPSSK
UniProt P12391, whole entry, looked up: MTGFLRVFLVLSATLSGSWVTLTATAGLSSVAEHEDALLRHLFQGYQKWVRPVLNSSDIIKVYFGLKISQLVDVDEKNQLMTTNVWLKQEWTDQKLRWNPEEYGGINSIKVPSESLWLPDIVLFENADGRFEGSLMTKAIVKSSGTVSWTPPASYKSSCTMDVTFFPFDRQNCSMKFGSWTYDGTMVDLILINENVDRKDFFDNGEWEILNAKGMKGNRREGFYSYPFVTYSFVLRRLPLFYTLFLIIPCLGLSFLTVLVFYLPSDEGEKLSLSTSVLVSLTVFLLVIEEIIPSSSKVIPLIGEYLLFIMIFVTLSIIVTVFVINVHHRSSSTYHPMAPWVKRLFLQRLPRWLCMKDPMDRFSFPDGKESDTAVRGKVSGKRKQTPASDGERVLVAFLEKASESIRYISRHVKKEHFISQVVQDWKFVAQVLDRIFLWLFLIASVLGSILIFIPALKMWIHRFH
UniProt P43143, whole entry M241L/F253L/V303I/V320I/I327V/A333T/K339T, looked up: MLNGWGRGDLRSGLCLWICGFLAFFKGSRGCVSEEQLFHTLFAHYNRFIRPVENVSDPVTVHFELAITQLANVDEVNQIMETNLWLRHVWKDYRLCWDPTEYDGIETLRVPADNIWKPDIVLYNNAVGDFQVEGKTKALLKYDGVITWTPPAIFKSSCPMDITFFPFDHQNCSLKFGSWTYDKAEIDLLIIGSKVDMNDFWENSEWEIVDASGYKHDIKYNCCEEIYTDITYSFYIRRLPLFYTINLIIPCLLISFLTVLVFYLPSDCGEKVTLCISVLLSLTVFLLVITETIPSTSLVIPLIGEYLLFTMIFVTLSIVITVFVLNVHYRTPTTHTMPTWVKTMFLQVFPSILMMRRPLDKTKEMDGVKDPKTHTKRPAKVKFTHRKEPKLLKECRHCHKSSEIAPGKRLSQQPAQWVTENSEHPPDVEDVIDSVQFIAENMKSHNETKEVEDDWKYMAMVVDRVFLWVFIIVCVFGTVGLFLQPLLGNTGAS

SMILES | tested on | assay | test system | setting | how to read | measurement | value
C[C@@H](O)[C@@H]1NC(=O)[C@H]2NC(=O)[C@@H](NC(=O)CN)CSSC[C@H](NC(=O)[C@H](CCCNC(=N)N)NC(=O)[C@@H]3CCCN3C(=O)[C@H](CC(=O)O)NC1=O)C(=O)N[C@@H](CCCNC(=N)N)C(=O)N[C@@H](Cc1ccc(O)c(I)c1)C(=O)N[C@@H](CCC(N)=O)C(=O)N[C@H](C(=O)N[C@H](CC(=O)N[C@@H](CCCNC(=N)N)C(=O)O)Cc1ccc(O)cc1)CSSC2(C)C | – | RP-HPLC | 25% human serum | 150 µM, 24 h, 37 °C | – | remaining ribbon isomer | 6%
CCOC(=O)c1c(-c2ccc(Cl)cc2Cl)n(-c2nc(-c3ccc(Cl)cc3)c3c(NC(=O)c4ccccc4)nnc-3[nH]2)[nH]c1=O | UACC-257 | SRB | – | – | – | CC50 | 6.1 µM
COc1cc(C2C(C#N)=C(N)Oc3c2c(C)nn3-c2ccc(Cl)cc2)ccc1O (stereo not shown) | Vero E6 | – | – | 1.6 µM | – | viability | 78%
CCCCCCCCC/C=C/C=O | Cytochrome P450 2A6 (CYP2A6, Homo sapiens, UniProt P11509) | competitive inhibitor | human liver S9 | added: coumarin | – | Ki | 128 ± 35 µM
Cc1ccc2[nH]cc(CNCC3(N4CCCC4)COC3)c2c1 | U87 | single-dose screen | – | 30 µM, 48 h | relative to: DMSO control | viability | 92.6%
COP(=O)(OC)Oc1ccc([N+](=O)[O-])cc1Cl | Carboxylesterase 1C (Ces1c, Rattus norvegicus, UniProt P10959) | enzyme activity, inhibitor | rat, postnatal day 70, rat serum | added: p-nitrophenyl valerate | – | IC50 | 0.081 µM
CC(C)[C@H](NC(=O)CNC(=O)[C@H](CCC(=O)O)NC(=O)[C@@H](NC(=O)[C@H](CCC(=O)O)NC(=O)[C@H](CC(=O)O)NC(=O)CCNC(=O)Cc1cc(=O)oc2cc(N)ccc12)C(C)C)C(=O)N[C@@H](CCCCNc1ccc([N+](=O)[O-])cc1[N+](=O)[O-])C(=O)N[C@@H](CC(=O)O)C(N)=O | Caspase-3 (CASP3, Homo sapiens, UniProt P42574) | substrate | – | pH 7.2 | – | Km | 12.8 µM
Cc1nn(-c2ccc(Cl)cc2)c2c1C(c1cc(Cl)ccc1Cl)C(C#N)=C(N)O2 (stereo not shown) | Vero E6 | MTT | – | 25 µM | – | viability | 64.2%
N#Cc1c(-c2ccc(Cl)cc2Cl)n(-c2nc(-c3ccc(Cl)cc3)c3c(NC(=O)c4ccccc4)nnc-3[nH]2)[nH]c1=O | HCC 2998 | SRB | – | – | – | CC50 | > 100 µM
Fc1ccc2[nH]cc(CNCC3(N4CCCC4)COC3)c2c1 | GBM6 | – | – | 30 µM, 48 h | relative to: DMSO | viability | 85.6%
NC12CC3CC(F)(CC(C1)c1ccccc13)C2 | Cytochrome P450 1A2 (CYP1A2, Homo sapiens, UniProt P05177) | enzyme activity, inhibitor, fluorescence | – | 10 µM | – | inhibition | 9 ± 2%
Cc1nn(-c2ccc(Cl)cc2)c2c1C(c1ccc([N+](=O)[O-])cc1)C(C#N)=C(N)O2 (stereo not shown) | Vero E6 | MTT | – | 100 µM | – | viability | 49.7%
CC[C@H](C)[C@@H]1NC(=O)[C@H](CCC(=O)O)NC(=O)[C@@H]2CCCN2C(=O)[C@H](Cc2c[nH]cn2)NC(=O)[C@H](CCCNC(=N)N)NC(=O)[C@H](C(C)C)NC(=O)[C@H](CC(N)=O)NC(=O)[C@@H]2CSSC[C@H](NC(=O)CN)C(=O)N[C@@H](CSSC[C@@H](C(N)=O)NC1=O)C(=O)N[C@@H](CO)C(=O)N[C@@H](Cc1c[nH]cn1)C(=O)N1CCC[C@H]1C(=O)N[C@@H](C(C)C)C(=O)N2 | Nicotinic acetylcholine receptor alpha6/alpha3/beta2/beta3 (Rattus norvegicus, UniProt P04757+P12390+P12391+P43143) | ion current, antagonist, two-electrode voltage clamp | Xenopus oocytes | rat, added: ACh 100 µM | – | IC50 | 0.111 µM
O=C(Nc1cccc(C2=NCCN2)c1)c1ccc(-c2ccc(C(=O)Nc3cccc(C4=NCCN4)c3)cc2)cc1 | HepG2 | – | – | – | – | CC50 | > 100 µM
Cc1nn(-c2ccc(Cl)cc2)c2c1C(c1ccc(O)cc1)C(C#N)=C(N)O2 (stereo not shown) | Vero E6 | MTT | – | 25 µM | – | viability | 55.9%
CC(Oc1ccc(Cl)cc1Cl)C(=O)NCc1ccc2[nH]cnc2c1 (stereo not shown) | CHO | LDH release | – | without Pseudomonas aeruginosa | – | CC50 | 62 ± 7 µM
